{"data": "Measurements from different studies", "note": "A part holds a random share of what one study measured. Substitutions count along the parent as printed."}
{"data": "Block 1", "target": "ABI1, truncated, D143A, DHFR fusion (Arabidopsis thaliana)", "technique": "DHFR PCA, deep sequencing", "sample": "yeast", "setting": "methotrexate growth selection, single substitutions", "added": "(+)-ABA 0.39 µM", "reference": "wild-type fitted maximum", "reading": "higher = stronger binding", "starting sequence": "PYL1, truncated, DHFR fusion (Arabidopsis thaliana); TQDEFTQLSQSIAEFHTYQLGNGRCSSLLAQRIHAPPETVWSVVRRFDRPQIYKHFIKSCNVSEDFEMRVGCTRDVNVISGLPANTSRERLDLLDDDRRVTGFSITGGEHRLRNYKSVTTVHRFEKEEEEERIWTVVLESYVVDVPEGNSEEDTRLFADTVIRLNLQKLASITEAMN; partner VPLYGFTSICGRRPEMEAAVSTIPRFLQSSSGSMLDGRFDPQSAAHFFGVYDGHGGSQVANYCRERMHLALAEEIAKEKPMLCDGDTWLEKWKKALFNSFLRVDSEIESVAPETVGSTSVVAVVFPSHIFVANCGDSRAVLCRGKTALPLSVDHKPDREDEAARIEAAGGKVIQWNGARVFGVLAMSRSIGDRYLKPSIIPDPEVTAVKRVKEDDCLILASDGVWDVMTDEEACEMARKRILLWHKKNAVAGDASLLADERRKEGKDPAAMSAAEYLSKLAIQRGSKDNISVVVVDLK"}
{"Variant": "D48G", "relative binding score": "1.42%"}
{"Variant": "E127V", "relative binding score": "42.4%"}
{"Variant": "Q31A", "relative binding score": "-2.4%"}
{"Variant": "S140K", "relative binding score": "-5.51%"}
{"Variant": "E139W", "relative binding score": "20.1%"}
{"Variant": "N177G", "relative binding score": "62.8%"}
{"Variant": "D65G", "relative binding score": "37.7%"}
{"Variant": "P50R", "relative binding score": "-9.06%"}
{"Variant": "I162E", "relative binding score": "-5.32%"}
{"Variant": "N22E", "relative binding score": "62.9%"}
{"Variant": "H110D", "relative binding score": "45.1%"}
{"Variant": "V118E", "relative binding score": "2.63%"}
{"Variant": "N85F", "relative binding score": "62.1%"}
{"Variant": "S11P", "relative binding score": "55.3%"}
{"Variant": "A13P", "relative binding score": "0.795%"}
{"Variant": "Y53M", "relative binding score": "-5.41%"}
{"data": "Block 2", "target": "Ras GTPase-activating protein-binding protein 1, full length (G3BP1, Homo sapiens, UniProt Q13283)", "technique": "RNA Bind-n-Seq", "form": "RNA", "sample": "in vitro", "tested at": "200 nM", "setting": "whole 134-nt RNA, ends assumed", "added": "150 mM LiCl", "reference": "input library", "reading": "higher = stronger binding", "library": "7-deaza-guanosine replaces G", "constant ends, left off below": "GGGAGUUCUACAGUCCGACGAUC … UGGAAUUCUCGGGUGUCAAGG", "sequence of UniProt Q13283 (whole entry, looked up)": "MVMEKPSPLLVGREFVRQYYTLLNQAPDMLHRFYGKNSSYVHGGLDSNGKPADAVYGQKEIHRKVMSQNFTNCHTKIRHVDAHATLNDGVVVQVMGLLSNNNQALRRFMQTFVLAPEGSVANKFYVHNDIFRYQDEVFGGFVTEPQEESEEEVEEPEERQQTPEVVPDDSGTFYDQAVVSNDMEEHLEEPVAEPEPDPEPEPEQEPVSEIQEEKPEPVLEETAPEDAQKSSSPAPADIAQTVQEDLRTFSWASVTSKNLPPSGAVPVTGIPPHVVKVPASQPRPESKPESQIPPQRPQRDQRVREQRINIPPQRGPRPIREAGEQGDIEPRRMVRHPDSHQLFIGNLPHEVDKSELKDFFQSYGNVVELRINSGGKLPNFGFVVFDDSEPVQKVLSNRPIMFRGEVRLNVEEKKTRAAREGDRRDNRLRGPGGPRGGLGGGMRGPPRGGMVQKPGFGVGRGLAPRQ"}
{"Oligonucleotide": "UGGGAGGUGGAUUUUGUUUAUUUUUUUAGCUCAUUUCCAGGGGUGGGAAUUUUUUUUUAAUAUGUGUCAUGAAUAAAGUUCUUUUUGAAA", "log2 enrichment": -0.419}
{"Oligonucleotide": "CCUGUGCUACACAUCGUAUGUACCGAAUCGGUUUUUUUGGGGUUUUUUUGGUUUUUUUGGGAAAGUAUUAUGUUACGCCGUUCGGAUCUG", "log2 enrichment": 0.79}
{"Oligonucleotide": "UUGCCCUGGUGGCAUGCGGGGAGGAAGAGGUGGCCUCAUGGAUCGUGGUGGUCCCGGUGGAAUGUUCAGAGGUGGCCGUGGUGGAGACAG", "log2 enrichment": 0.721}
{"Oligonucleotide": "CAAGUCCUGUGCUACACAUCGUAUGUACCGAAUCGGGGUUUGGGGUGGGGAGGGGAAAGUAUUAUGUUACGCCGUUCGGAUCUGCACUUC", "log2 enrichment": 0.426}
{"Oligonucleotide": "AGUCCUGUGCUACACAUCGUAUGUACCGAAUCGGGAAAAGGGGAAAAGGGGAAAAGGAAAGUAUUAUGUUACGCCGUUCGGAUCUGCACU", "log2 enrichment": -0.422}
{"Oligonucleotide": "UGCUUCUCUAUGGAAAGGACUUUCCCCCAAGCUGGACGAGGCAUUAAGAAGGAUAGAGGACUCCAGCAGGCUGACUCUACACUUCAUCAU", "log2 enrichment": 0.675}
{"Oligonucleotide": "UUGCUAAUCUAUAAAUUUUUUUUAUAUGAAAUAGCUCAUAGUCGGAAGCCGGCACCCUCAAAUGAGCCCGAAUAUCUAUGUAAAUGGAUG", "log2 enrichment": -2.95}
{"Oligonucleotide": "CAAGUCCUGUGCUACACAUCGUAUGUACCGAAUCGGAAAAGGAAAAGGGAAAAGGGAAAGUAUUAUGUUACGCCGUUCGGAUCUGCACUU", "log2 enrichment": -0.972}
{"data": "Block 3", "target": "RNA binding protein fox-1 homolog 2, RRM domain, GST-SBP tag (RBFOX2, Homo sapiens, UniProt O43251-10, residues 100-194)", "technique": "RNA Bind-n-Seq", "form": "RNA", "sample": "in vitro", "tested at": "365 nM", "setting": "natural RNA segment, single round, ends assumed", "reference": "no-protein control", "reading": "higher = stronger binding", "constant ends, left off below": "GGGAGUUCUACAGUCCGACGAUC … UGGAAUUCUCGGGUGCCAA", "Target sequence (chain)": "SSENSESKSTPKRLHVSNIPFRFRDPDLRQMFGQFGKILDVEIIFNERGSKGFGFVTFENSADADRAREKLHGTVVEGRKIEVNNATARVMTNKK"}
{"Oligonucleotide": "UUGACCAAGAAGAAAUGGAGUCUGAGCACCUGGUUUCUGUUCUGUCUAUCUCACUUCACUGUGAGGGGAAGACCUUCUCAUGGGAACUCUCCAAAUACCAUUCAAGUGCC", "RBNS enrichment (R)": 0.299}
{"Oligonucleotide": "GGCCCUCCAGGCCAAGAGUCUCAGCUGGCCGAGAGUCCAGGCCUUGCCUCCCCCGACCGCCAUGGAGGGGGCAGCCCGGCACAGCUGCUGGGAGCCCUUGUGUGUCUGGU", "RBNS enrichment (R)": 0.581}
{"Oligonucleotide": "GUAGUCUUAAUAGUUUUGAAUGUUGACUGAAUGUCUAUAAAAUUGUGAGUUUGUCUUUGUUACAUUCCAGUGUUUCUGCCUCUUGGCAUGCUUAAAGCACGGCUUACUUC", "RBNS enrichment (R)": 6.39}
{"Oligonucleotide": "UGAGUCCAGCAUUUGGGUAUUGAGACAGCCUAGGGUACACAGGCACAAGACCCUGUCUCAACCAGAAAAGAAAAAUGUGUUUGCCAAAUCAUAACUCAGGGGCUUUGAAC", "RBNS enrichment (R)": 1.08}
{"Oligonucleotide": "CUACCUGGUGGGCUGGUUGAGGAUGGGAGAGAGUUGGCUGUGUGCCAUGUUCAGAUGUAUGGUGGAUGUUACUGUCACAAUAAAGUUCAAAGUGGCCAGUGCCCAUCAGA", "RBNS enrichment (R)": 1.04}
{"Oligonucleotide": "CCUGAGCACUAGCCGGAGUCUGGGCACAGUGUCUGAGACCACACCAUAGGCUGCGUGAGUGUGAGUGUGUAUGGAAGUGUGUGCGCAAGUGUGUGCGCAUGCAUGAGUGC", "RBNS enrichment (R)": 1.2}
{"Oligonucleotide": "GUCUCUUGUCAAUCCACAAGAACAAUGCAAAGUUAUGUUUGGGAACACUACAGGAAUAUGUAAUUGUUUCUUGCAGAAGUCUUAAGUCCACCCAAUAAUAAGAUCAGAAG", "RBNS enrichment (R)": 0.412}
{"Oligonucleotide": "UCUUCUUCCCUCAACUUCUUCACCCCUGAAGGACGACUGUCUGCAGAUGUUGCAGGACCUUGUUUUAAAAUCAACUCCCUUCUCUCCCAGCGGGGGGCCUCUUCCUUCCU", "RBNS enrichment (R)": 0.324}
{"data": "Block 4", "target": "CCNA2, cyclin fold, Cln2 fusion (human)", "technique": "yeast growth competition, sequencing", "sample": "yeast", "setting": "strong parent motif", "reference": "not given", "reading": "higher = stronger binding", "starting sequence": "WEE1 docking peptide (human); HKTFRKLRLFDTP"}
{"Variant": "L9D", "normalised enrichment score": 1.37}
{"Variant": "L7M", "normalised enrichment score": 0.876}
{"Variant": "H1N", "normalised enrichment score": 0.545}
{"Variant": "T3R", "normalised enrichment score": 1.17}
{"Variant": "D11C", "normalised enrichment score": 2.03}
{"Variant": "T12R", "normalised enrichment score": 1.7}
{"Variant": "F10C", "normalised enrichment score": 0.675}
{"Variant": "L7W", "normalised enrichment score": 1.88}
{"Variant": "P13R", "normalised enrichment score": 0.49}
{"Variant": "L9V", "normalised enrichment score": 1.06}
{"Variant": "R8T", "normalised enrichment score": 1.14}
{"Variant": "D11S", "normalised enrichment score": -0.132}
{"Variant": "F4A", "normalised enrichment score": 1.65}
{"Variant": "T3F", "normalised enrichment score": 1.74}
{"Variant": "T3Y", "normalised enrichment score": 1.19}
{"Variant": "T3C", "normalised enrichment score": 0.599}
{"Variant": "L7N", "normalised enrichment score": 1.33}
{"Variant": "R8P", "normalised enrichment score": 0.427}
{"Variant": "L7V", "normalised enrichment score": 1.31}
{"Variant": "D11G", "normalised enrichment score": 0.258}
{"Variant": "K6I", "normalised enrichment score": 1.46}
{"Variant": "L7Q", "normalised enrichment score": 1.42}
{"Variant": "F10D", "normalised enrichment score": 0.746}
{"Variant": "P13I", "normalised enrichment score": 1.49}
{"Variant": "P13Y", "normalised enrichment score": 0.896}
{"note": "Excerpt of the above (block 3):"}
{"Oligonucleotide": "GGCCCUCCAGGCCAAGAGUCUCAGCUGGCCGAGAGUCCAGGCCUUGCCUCCCCCGACCGCCAUGGAGGGGGCAGCCCGGCACAGCUGCUGGGAGCCCUUGUGUGUCUGGU", "RBNS enrichment (R)": 0.581}
{"Oligonucleotide": "CCUGAGCACUAGCCGGAGUCUGGGCACAGUGUCUGAGACCACACCAUAGGCUGCGUGAGUGUGAGUGUGUAUGGAAGUGUGUGCGCAAGUGUGUGCGCAUGCAUGAGUGC", "RBNS enrichment (R)": 1.2}
{"Oligonucleotide": "CUACCUGGUGGGCUGGUUGAGGAUGGGAGAGAGUUGGCUGUGUGCCAUGUUCAGAUGUAUGGUGGAUGUUACUGUCACAAUAAAGUUCAAAGUGGCCAGUGCCCAUCAGA", "RBNS enrichment (R)": 1.04}
{"Oligonucleotide": "GUAGUCUUAAUAGUUUUGAAUGUUGACUGAAUGUCUAUAAAAUUGUGAGUUUGUCUUUGUUACAUUCCAGUGUUUCUGCCUCUUGGCAUGCUUAAAGCACGGCUUACUUC", "RBNS enrichment (R)": 6.39}
{"Oligonucleotide": "GUCUCUUGUCAAUCCACAAGAACAAUGCAAAGUUAUGUUUGGGAACACUACAGGAAUAUGUAAUUGUUUCUUGCAGAAGUCUUAAGUCCACCCAAUAAUAAGAUCAGAAG", "RBNS enrichment (R)": 0.412}
{"Oligonucleotide": "UUGACCAAGAAGAAAUGGAGUCUGAGCACCUGGUUUCUGUUCUGUCUAUCUCACUUCACUGUGAGGGGAAGACCUUCUCAUGGGAACUCUCCAAAUACCAUUCAAGUGCC", "RBNS enrichment (R)": 0.299}
{"Oligonucleotide": "UGAGUCCAGCAUUUGGGUAUUGAGACAGCCUAGGGUACACAGGCACAAGACCCUGUCUCAACCAGAAAAGAAAAAUGUGUUUGCCAAAUCAUAACUCAGGGGCUUUGAAC", "RBNS enrichment (R)": 1.08}
{"Oligonucleotide": "UCUUCUUCCCUCAACUUCUUCACCCCUGAAGGACGACUGUCUGCAGAUGUUGCAGGACCUUGUUUUAAAAUCAACUCCCUUCUCUCCCAGCGGGGGGCCUCUUCCUUCCU", "RBNS enrichment (R)": 0.324}
